{"data": "Measured values of several laboratories", "note": "Lines come from different studies, so protocols differ."}
{"Structure (SMILES)": "Cc1nc(C)c(-c2ccnc(Nc3ccc(N(C)C)c(Cl)c3)n2)s1", "test system": "octanol/buffer", "conditions": "pH 11", "endpoint": "logP", "result": 4.3}
{"Structure (SMILES)": "CCn1cc(Cl)c2c(Cc3ccc(C(F)(F)F)nc3)n(C)nc2c1=O", "test system": "rat Sprague-Dawley male, blood", "conditions": "intravenous, 1 mg/kg", "endpoint": "CLint,u", "result": "354 mL/min/kg"}
{"Structure (SMILES)": "C[C@@H](Oc1ccc(S(C)(=O)=O)cc1C(=O)N1C[C@@H]2C[C@]2(c2cc(C(F)(F)F)on2)C1)C(F)(F)F", "test": "LC-MS/MS", "test system": "elderly human subjects, plasma", "conditions": "oral, 25 mg once daily, steady state, multiple doses", "endpoint": "Vz/F", "result": "338 L"}
{"Structure (SMILES)": "OC[C@H]1O[C@@H](c2ccc(Cl)c(Cc3ccc(O[C@H]4CCOC4)cc3)c2)[C@H](O)[C@@H](O)[C@@H]1O", "test system": "Japanese type 1 diabetes patients, blood", "conditions": "10 mg, day 28", "how to read": "relative to: baseline", "endpoint": "change in Non-HDL cholesterol", "result": "-0.42 mg/dL"}
{"Structure (SMILES)": "C[C@@H](c1nc(-c2ccc(C#N)cc2)cs1)[C@](O)(Cn1cncn1)c1cc(F)ccc1F", "test system": "healthy humans", "conditions": "oral, dose not given, with: ketoconazole", "endpoint": "adverse event Paronychia", "result": "0%"}
{"Structure (SMILES)": "O=S(=O)(c1ccc(-c2ccc3nccc(Nc4ccncn4)c3c2)cc1)N1CCOCC1", "test system": "female BALB/c mice, brain", "conditions": "intraperitoneal, 10 mg/kg, 4 h, mean", "endpoint": "brain concentration", "result": "0 ng/g"}
{"Structure (SMILES)": "C[C@H](Oc1ccc(Br)cc1-c1ccon1)C(=O)O", "test system": "human, plasma", "conditions": "600 mg once daily, day 10", "how to read": "relative to: day 1", "endpoint": "accumulation ratio (AUC)", "result": 0.887}
{"Structure (SMILES)": "CC(C)n1c(Nc2cccnc2)nc2cnc(Nc3ccc(N4CCN(C)CC4)cc3)nc21", "test": "item: eosinophil count increased", "test system": "healthy male subjects", "conditions": "oral, 150 mg, study, with: rifampin", "endpoint": "subjects with adverse event", "result": "7.1%"}
{"Structure (SMILES)": "Cn1c(C(F)(F)F)cc(=O)n(-c2cc(Oc3cccnc3OCC(=O)O)c(Cl)cc2F)c1=O", "test system": "Crl:CD1(ICR) mice, female, plasma", "conditions": "oral diet, 100 ppm in diet, day 1, 90-day toxicity study", "endpoint": "Cmax", "result": "647 ng/mL"}
{"Structure (SMILES)": "C=CC(=O)Nc1cc(Nc2nccc(-c3cn(C)c4ccccc34)n2)c(OC)cc1N(C)CCN(C)C", "test": "storage stability", "test system": "human dried blood spot", "conditions": "30 d, on ice, LLOQ level", "endpoint": "recovery", "result": "60.2%"}
{"Structure (SMILES)": "C=CC(=O)N1CCC[C@@H](n2nc(-c3ccc(Oc4ccccc4)cc3)c3c(N)ncnc32)C1", "test": "thermogravimetric analysis", "endpoint": "decomposition temperature", "result": "353 °C"}
{"Structure (SMILES)": "Cl.[2H]C([2H])([2H])CC(=O)c1cnc(NC(=O)C2CC2)cc1Nc1cccc(-c2ncn(C([2H])([2H])[2H])n2)c1OC", "test": "geometric mean", "test system": "human", "conditions": "oral, 20 mg once daily, day 1, fasted, liquid, multiple dose", "endpoint": "elimination rate constant", "result": "3.08e-05 s⁻¹"}
{"Structure (SMILES)": "Cc1cc2sc(N)nc2c2cccnc12", "test system": "female BALB/c mice, plasma", "conditions": "i.p., 30 mg/kg", "endpoint": "Tlast", "result": "24 h"}
{"Structure (SMILES)": "O=C(O)C[C@H](O)C[C@H](O)/C=C/c1c(C2CC2)nc2ccccc2c1-c1ccc(F)cc1", "test system": "FVB wild-type mouse, plasma", "conditions": "oral, 5 mg/kg, geometric mean", "endpoint": "AUC(0-12h)", "result": "0.0773 µM·h"}
{"Structure (SMILES)": "Cn1cc(-c2ccc(-c3cncc(Cl)c3N3CCC4(CCNC4=O)CC3)cc2)cn1", "target or system": "COLO 205", "test": "gene expression, microarray, item: KITLG mRNA", "conditions": "concentration not given, 2 h", "how to read": "relative to: untreated cells", "endpoint": "log2 fold change", "result": 1.54}
{"Structure (SMILES)": "CC1(C)CCC(CN2CCN(c3ccc(C(=O)NS(=O)(=O)c4ccc(NCC5CCOCC5)c([N+](=O)[O-])c4)c(Oc4cnc5[nH]ccc5c4)c3)CC2)=C(c2ccc(Cl)cc2)C1", "test system": "human", "conditions": "400 mg", "endpoint": "absolute neutrophil count", "result": "100 cells/µL"}
{"Structure (SMILES)": "CO[C@H]1C[C@@H]2CC[C@@H](C)[C@@](O)(O2)C(=O)C(=O)N2CCCC[C@H]2C(=O)O[C@H]([C@H](C)C[C@@H]2CC[C@@H](OC(=O)NCCOCCOCCOCCOCCOCCOCCOCCOCCC(=O)N3CCc4cc(Cn5nc(-c6ccc7oc(N)nc7c6)c6c(N)ncnc65)ccc4C3)[C@H](OC)C2)C[C@@H](O)[C@H](C)/C=C(\\C)[C@@H](O)[C@@H](OC)C(=O)[C@H](C)C[C@H](C)/C=C/C=C/C=C/1C", "test system": "tumour-bearing xenograft mice, plasma", "conditions": "intraperitoneal, 1 mg/kg, weekly dosing", "endpoint": "AUClast", "result": "21.1 µM·h"}
{"Structure (SMILES)": "CC(C)C1=NCCc2ccc(NC(=O)c3cc(Br)c4cc(C(=N)N)ccc4c3)cc21", "test system": "octanol/buffer", "conditions": "pH 11, urokinase ligand set", "endpoint": "logP", "result": 4.18}
{"Structure (SMILES)": "CC(C)(C(=O)N1CCOc2c(C#N)cncc2C1)C(F)F", "test": "item: Cardiac disorders", "test system": "human", "conditions": "oral, 10 mg once daily, 14 days, multiple ascending dose", "endpoint": "subjects with adverse event", "result": "0%"}
{"Structure (SMILES)": "NC(=O)c1cnc2[nH]ccc2c1N[C@@H]1[C@@H]2CC3C[C@H]1C[C@@](O)(C3)C2", "test system": "healthy human volunteers, plasma", "conditions": "oral, population PK model estimate", "endpoint": "zero-order absorption duration", "result": "1.3 h"}
{"Structure (SMILES)": "CNC(=O)c1ccc(-c2cnc3ncc(Cc4ccc5ncccc5c4)n3n2)cc1F", "test": "item: Dyspepsia, all grades", "test system": "cancer patients", "conditions": "oral, 600 mg twice daily, expansion cohort, any causality", "endpoint": "patients with adverse event", "result": "11%"}
{"note": "Excerpt of the above:"}
{"Structure (SMILES)": "Cn1c(C(F)(F)F)cc(=O)n(-c2cc(Oc3cccnc3OCC(=O)O)c(Cl)cc2F)c1=O", "test system": "Crl:CD1(ICR) mice, female, plasma", "conditions": "oral diet, 100 ppm in diet, day 1, 90-day toxicity study", "endpoint": "Cmax", "result": "647 ng/mL"}
{"Structure (SMILES)": "C=CC(=O)Nc1cc(Nc2nccc(-c3cn(C)c4ccccc34)n2)c(OC)cc1N(C)CCN(C)C", "test": "storage stability", "test system": "human dried blood spot", "conditions": "30 d, on ice, LLOQ level", "endpoint": "recovery", "result": "60.2%"}
